Assay results pooled from the literature.
A part holds a random share of what one study measured.

Series 1 — method: protein binding microarray; molecule type: double-stranded DNA, one strand shown; matrix: in vitro; concentration: not given; reference: not given; reading: higher = stronger binding
Target: Histone acetyltransferase KAT6A, both winged helices, GST fusion (KAT6A, Homo sapiens, UniProt Q92794, residues 1-181)
Setting: 8-mer, flanks averaged, mean of 2 arrays, mostly near background
Construct (chain): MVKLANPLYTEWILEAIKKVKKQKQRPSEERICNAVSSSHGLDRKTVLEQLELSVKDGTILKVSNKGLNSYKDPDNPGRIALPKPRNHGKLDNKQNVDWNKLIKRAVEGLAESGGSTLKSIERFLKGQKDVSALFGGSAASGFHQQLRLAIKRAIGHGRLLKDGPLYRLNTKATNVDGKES
Sequence	E-score
ATTCGAAG	-0.076
ATTTCTAG	0.0324
ACGCCCTA	0.00805
AGATTCCA	-0.062
ACCCAATG	-0.0561
AGTCAGCC	-0.084
AGCTACAA	-0.0675
CTCTATTC	-0.00724
AACTTAGC	-0.148
TCTCGAAA	0.0163
CATAGTTA	-0.0617
AAAACTTA	-0.188
CCCACCTA	-0.17
AGCACCGC	0.185
CCGTAACA	0.187
AAGACTTA	-0.212
ATGAACGG	0.13
AAACCGAG	0.129
CGCCGATA	0.306
AGATCACG	0.0266
CAAAAACA	-0.0348
GATCTCGC	0.11
CATGCTAC	-0.0826

Series 2 — method: RNA Bind-n-Seq; molecule type: RNA; matrix: in vitro; concentration: 1 µM; setting: whole 134-nt RNA, ends assumed; together with: 150 mM KCl; reference: input library; reading: higher = stronger binding
Target: Ras GTPase-activating protein-binding protein 1, RRM domain (G3BP1, Homo sapiens, UniProt Q13283)
Sequence of UniProt Q13283 (whole entry, looked up): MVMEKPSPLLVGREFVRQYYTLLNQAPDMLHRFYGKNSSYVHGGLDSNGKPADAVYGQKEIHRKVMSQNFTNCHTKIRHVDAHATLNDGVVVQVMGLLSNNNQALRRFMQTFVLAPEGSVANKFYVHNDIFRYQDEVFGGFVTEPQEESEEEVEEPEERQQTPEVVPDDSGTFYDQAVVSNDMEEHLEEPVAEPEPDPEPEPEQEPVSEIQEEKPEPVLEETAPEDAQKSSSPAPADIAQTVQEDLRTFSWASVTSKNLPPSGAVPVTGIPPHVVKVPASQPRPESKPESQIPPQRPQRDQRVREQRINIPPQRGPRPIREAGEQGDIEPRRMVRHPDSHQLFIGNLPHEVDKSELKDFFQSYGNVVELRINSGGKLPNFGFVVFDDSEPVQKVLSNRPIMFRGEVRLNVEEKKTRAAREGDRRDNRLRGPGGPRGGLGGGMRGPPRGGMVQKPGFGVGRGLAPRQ
Shared flanks, not repeated: GGGAGUUCUACAGUCCGACGAUC … UGGAAUUCUCGGGUGUCAAGG
Sequence	log2 enrichment
CUCAAGUCCUGUGCUACACAUCGUAUGUACCGAAUCGGCCGGGGCCGGCCGGGAAAGUAUUAUGUUACGCCGUUCGGAUCUGCACUUCCA	-0.395
AAGUCCUGUGCUACACAUCGUAUGUACCGAAUCGGGAGGGAAAAAGGGUUUUUGGGAAAGUAUUAUGUUACGCCGUUCGGAUCUGCACUU	0.567
UCAAGUCCUGUGCUACACAUCGUAUGUACCGAAUCGGAGGAAAGGAAAAAAAGGAAAGUAUUAUGUUACGCCGUUCGGAUCUGCACUUCC	-0.101
GUCCUGUGCUACACAUCGUAUGUACCGAAUCGGGAAAGGGUUUUUGGGAAAAAAAGGGAAAGUAUUAUGUUACGCCGUUCGGAUCUGCAC	0.184
GUGCUACACAUCGUAUGUACCGAAUCGGGGAAAAAAAGGGGUUUUUUUGGGGAAAAAAAGGGGAAAGUAUUAUGUUACGCCGUUCGGAUC	1.21
CAAGUCCUGUGCUACACAUCGUAUGUACCGAAUCGGUUUGGGGUUUGGGGUUUGGGAAAGUAUUAUGUUACGCCGUUCGGAUCUGCACUU	-0.248
GUCCUGUGCUACACAUCGUAUGUACCGAAUCGGGGUUUGGGGUUUGGGGUUUUUGGGGAAAGUAUUAUGUUACGCCGUUCGGAUCUGCAC	2.18
UCAAGUCCUGUGCUACACAUCGUAUGUACCGAAUCGGAAGGGGAAGGGGAAGGGAAAGUAUUAUGUUACGCCGUUCGGAUCUGCACUUCC	0.758
GUCCUGUGCUACACAUCGUAUGUACCGAAUCAAACCCCCAAACCCCCCCAAACCCAAAAAAGUAUUAUGUUACGCCGUUCGGAUCUGCAC	-0.129

Series 3 — method: protein-binding microarray; molecule type: double-stranded DNA, one strand shown; matrix: in vitro; concentration: 250 nM; setting: 60-bp whole probe; together with: salmon DNA 0.4 mg/ml; reference: random background probes; reading: higher = stronger binding; shared flanks, not repeated: GCCTAGCAC … GTCTTGATTCGCTTGACGCTGCTG
Target: Interferon regulatory factor 5, full length, phosphomimetic (IRF5, Homo sapiens, UniProt Q13568-2, residues 1-514, K96S/S451D/S453D/S456D/S462D)
Sequence	log fluorescence [z-score]
GATGGTATCGACACTGGGGACGTGCTA	2.13
TTAGGTATCGGACCGGGTTAGTGCTAG	1.16
TTAGAACTGAGTCTCGATTAGTGCTAG	0.657
GACGGTATCGGTATCAGGACGTGCTAG	5.84
GACGATTTCGCGTATCGAGACGTGCTA	1.26
TCACCACTCCAGTTCTGACTGTGCTAG	0.0309
TTAGATATCAGACTAGATTAGTGCTAG	0.392
TACTGTCTGTTTCCTCTTTCTGTGCTA	2.04
GACGGTTTCGACTTTCGGTACGTGCTA	10.2
GACGATTTCGGCACTGGAGACGTGCTA	2.03
GTATGACTCTGCCTCTAACTGTGCTAG	-0.194
TTAGGTATCGGTCTAGGTTAGTGCTAG	7.65
GCGCCTGTAGCCCCTCCAGGGTGCTAG	-0.843
GACGGTTTCGGACCGGGGACGTGCTAG	3.1
GACGGTTTCCCTTCCCTGACGTGCTAG	0.819
TCATCTTCACATATAATACTGTGCTAG	0.858
GACGATATCGGGTATCGAGTCGTGCTA	2.82
TCATGAATGTGTCTTAAACTGTGCTAG	0.166
GACGAACTGAGTGTCGAGACGTGCTAG	-0.15

Series 4 — method: universal PBM; molecule type: double-stranded DNA, one strand shown; matrix: in vitro; concentration: not given; reading: higher = stronger binding
Target: Sal-like protein 4, full length isoform B (SALL4, Homo sapiens, UniProt Q9UJQ4-2, residues 1-616)
Setting: 8-mer, flanks averaged, mean of replicates
Sequence	E-score
CTAAGAGC	-0.352
AACGCGCC	-0.184
CTAACGAA	0.0785
CCGCTTAA	-0.0343
CGTGTCAA	-0.166
ATACATTG	0.261
AGTAAATA	0.355
AAGGACTT	-0.131
CCTAGCTA	5e-05
AGTCCTCG	-0.222
GAAGGCCC	-0.285
ACGCGATG	-0.0853
CATTCTAG	0.175
GCGCTTAC	-0.245
CCGAATGA	0.0731
AGCGGTAC	-0.121
CCAAGGAA	-0.00474
GAGACACA	-0.00631
AAATAGTG	0.221
ACGAATAC	0.158
AAGCAACT	0.112
AGCGTAAG	-0.0974
TCTGCACA	0.133
AATTCTGA	0.151
GGGTCCTA	-0.2
